Results from different studies.
Each line is one published result; not all experiments were run side by side. ± gives the spread as reported.
HCK Y522F: Tyrosine-protein kinase HCK (HCK, Homo sapiens, UniProt P08631, Y522F)
UniProt P08631, sequence (whole entry, unmodified, looked up): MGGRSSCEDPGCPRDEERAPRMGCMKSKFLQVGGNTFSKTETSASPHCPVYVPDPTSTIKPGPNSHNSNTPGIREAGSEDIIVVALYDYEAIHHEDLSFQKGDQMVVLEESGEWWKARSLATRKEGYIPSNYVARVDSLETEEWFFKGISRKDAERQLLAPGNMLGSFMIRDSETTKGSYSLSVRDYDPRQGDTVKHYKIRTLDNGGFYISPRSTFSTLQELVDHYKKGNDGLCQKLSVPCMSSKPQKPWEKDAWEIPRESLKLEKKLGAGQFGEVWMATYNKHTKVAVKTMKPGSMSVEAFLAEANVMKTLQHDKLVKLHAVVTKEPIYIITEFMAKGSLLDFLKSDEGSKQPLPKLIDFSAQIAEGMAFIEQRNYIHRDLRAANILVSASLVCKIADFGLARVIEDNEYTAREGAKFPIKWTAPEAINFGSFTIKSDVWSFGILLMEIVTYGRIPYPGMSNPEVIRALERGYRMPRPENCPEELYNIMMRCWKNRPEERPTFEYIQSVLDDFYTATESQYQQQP
CNR1: Cannabinoid receptor 1 (CNR1, Homo sapiens, UniProt P21554)
UniProt P21554, sequence (whole entry, unmodified, looked up): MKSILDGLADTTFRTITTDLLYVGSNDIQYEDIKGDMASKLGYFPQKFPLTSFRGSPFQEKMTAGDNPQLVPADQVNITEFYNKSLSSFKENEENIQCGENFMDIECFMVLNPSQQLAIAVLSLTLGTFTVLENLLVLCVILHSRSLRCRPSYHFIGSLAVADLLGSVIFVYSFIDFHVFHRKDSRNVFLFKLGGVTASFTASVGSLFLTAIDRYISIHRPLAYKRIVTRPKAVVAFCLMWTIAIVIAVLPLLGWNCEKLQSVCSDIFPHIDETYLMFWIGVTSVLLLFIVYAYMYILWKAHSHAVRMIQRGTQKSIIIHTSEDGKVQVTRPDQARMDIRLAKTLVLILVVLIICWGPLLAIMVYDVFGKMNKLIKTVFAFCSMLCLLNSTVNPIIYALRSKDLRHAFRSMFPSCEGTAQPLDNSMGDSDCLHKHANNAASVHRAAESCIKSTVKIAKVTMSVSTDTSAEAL
UniProt P25021, sequence (whole entry, looked up): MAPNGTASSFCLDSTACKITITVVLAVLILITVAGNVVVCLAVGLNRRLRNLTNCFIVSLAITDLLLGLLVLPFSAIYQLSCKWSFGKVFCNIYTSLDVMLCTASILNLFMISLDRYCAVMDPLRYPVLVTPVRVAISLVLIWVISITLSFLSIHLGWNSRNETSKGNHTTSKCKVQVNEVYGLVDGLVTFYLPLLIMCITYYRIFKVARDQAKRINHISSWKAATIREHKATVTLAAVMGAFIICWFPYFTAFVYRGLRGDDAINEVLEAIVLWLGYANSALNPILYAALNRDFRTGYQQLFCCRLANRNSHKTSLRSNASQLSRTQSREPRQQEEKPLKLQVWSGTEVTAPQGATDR
UniProt P13128, sequence (whole entry, looked up): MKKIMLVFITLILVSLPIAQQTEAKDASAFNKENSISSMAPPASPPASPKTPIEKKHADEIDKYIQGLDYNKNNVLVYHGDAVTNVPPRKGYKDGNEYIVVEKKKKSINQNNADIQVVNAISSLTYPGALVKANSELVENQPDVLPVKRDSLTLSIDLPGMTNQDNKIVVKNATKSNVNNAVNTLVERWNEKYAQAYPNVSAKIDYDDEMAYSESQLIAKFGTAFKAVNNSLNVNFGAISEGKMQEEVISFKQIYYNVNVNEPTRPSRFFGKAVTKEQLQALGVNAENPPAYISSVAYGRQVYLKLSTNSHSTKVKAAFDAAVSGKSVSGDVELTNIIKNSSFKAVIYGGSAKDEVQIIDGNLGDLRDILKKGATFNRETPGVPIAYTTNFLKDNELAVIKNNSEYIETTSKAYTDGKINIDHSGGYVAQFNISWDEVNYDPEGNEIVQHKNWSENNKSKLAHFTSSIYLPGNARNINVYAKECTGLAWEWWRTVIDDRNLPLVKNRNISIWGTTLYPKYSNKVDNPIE
UniProt Q8VJU4, sequence (whole entry, looked up): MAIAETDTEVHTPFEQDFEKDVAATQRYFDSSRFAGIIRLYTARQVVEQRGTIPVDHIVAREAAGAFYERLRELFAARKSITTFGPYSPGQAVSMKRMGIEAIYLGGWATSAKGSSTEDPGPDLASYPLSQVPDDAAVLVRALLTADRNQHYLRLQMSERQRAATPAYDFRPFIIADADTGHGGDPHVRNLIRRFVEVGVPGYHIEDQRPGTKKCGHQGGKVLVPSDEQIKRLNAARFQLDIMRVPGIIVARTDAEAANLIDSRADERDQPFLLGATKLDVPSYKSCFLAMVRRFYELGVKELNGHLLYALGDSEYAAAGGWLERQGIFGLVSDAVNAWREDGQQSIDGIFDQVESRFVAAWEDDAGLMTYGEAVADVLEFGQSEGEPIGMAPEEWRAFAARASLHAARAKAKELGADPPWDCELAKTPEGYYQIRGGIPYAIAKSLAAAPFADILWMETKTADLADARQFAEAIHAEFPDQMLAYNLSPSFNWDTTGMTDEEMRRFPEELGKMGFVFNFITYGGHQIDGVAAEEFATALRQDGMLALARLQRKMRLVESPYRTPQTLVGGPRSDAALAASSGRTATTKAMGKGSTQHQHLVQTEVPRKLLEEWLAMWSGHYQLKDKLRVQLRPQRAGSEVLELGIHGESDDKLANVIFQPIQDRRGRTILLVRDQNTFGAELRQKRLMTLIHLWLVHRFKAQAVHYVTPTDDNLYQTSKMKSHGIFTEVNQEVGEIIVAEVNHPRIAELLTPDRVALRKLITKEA
UniProt P41143, sequence (whole entry, unmodified, looked up): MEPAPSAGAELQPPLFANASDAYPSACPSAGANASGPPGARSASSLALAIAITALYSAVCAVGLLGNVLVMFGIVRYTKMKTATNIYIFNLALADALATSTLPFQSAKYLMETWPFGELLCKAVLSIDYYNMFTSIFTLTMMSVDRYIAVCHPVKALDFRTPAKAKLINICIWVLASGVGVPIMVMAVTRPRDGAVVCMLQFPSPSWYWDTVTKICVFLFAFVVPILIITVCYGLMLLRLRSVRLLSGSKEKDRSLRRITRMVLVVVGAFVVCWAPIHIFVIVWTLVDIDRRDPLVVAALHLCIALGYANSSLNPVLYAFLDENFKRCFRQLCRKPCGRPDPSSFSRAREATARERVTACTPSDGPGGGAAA
UniProt P9WHG9, sequence (53-446, looked up): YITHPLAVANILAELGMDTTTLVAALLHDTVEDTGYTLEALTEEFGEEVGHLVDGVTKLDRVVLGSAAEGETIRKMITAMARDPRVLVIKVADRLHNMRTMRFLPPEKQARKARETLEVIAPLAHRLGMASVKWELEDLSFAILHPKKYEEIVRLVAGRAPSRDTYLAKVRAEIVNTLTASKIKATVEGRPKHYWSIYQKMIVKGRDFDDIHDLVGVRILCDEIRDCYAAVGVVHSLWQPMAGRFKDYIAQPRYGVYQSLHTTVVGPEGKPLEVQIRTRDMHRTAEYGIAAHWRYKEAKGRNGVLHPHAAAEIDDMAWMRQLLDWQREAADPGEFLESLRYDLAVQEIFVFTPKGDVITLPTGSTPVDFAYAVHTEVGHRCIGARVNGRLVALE
UniProt Q92851, sequence (whole entry, looked up): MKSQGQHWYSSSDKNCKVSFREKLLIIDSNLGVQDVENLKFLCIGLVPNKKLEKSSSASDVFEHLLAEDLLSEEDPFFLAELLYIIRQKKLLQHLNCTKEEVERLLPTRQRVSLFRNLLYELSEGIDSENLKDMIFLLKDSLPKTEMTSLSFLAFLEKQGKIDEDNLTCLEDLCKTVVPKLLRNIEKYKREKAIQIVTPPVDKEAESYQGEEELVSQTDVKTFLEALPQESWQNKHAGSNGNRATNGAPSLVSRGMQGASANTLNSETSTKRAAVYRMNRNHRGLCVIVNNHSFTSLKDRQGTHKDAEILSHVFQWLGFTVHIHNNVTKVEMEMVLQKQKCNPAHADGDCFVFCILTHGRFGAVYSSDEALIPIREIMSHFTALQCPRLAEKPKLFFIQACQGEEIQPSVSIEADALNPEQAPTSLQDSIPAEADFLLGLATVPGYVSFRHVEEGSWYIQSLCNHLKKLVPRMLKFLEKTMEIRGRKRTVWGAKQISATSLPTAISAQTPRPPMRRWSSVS
UniProt P31391, sequence (whole entry, looked up): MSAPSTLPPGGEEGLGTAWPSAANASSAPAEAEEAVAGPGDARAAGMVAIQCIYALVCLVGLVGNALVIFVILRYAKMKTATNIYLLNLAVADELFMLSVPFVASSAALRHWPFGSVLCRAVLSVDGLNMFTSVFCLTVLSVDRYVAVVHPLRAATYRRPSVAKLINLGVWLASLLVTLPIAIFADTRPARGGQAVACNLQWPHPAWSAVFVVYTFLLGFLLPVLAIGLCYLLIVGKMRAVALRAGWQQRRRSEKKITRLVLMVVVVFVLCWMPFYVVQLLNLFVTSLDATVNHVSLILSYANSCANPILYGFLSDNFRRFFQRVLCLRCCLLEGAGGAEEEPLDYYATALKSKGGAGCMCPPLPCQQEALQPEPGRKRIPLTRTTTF
UniProt P43220, sequence (whole entry, looked up): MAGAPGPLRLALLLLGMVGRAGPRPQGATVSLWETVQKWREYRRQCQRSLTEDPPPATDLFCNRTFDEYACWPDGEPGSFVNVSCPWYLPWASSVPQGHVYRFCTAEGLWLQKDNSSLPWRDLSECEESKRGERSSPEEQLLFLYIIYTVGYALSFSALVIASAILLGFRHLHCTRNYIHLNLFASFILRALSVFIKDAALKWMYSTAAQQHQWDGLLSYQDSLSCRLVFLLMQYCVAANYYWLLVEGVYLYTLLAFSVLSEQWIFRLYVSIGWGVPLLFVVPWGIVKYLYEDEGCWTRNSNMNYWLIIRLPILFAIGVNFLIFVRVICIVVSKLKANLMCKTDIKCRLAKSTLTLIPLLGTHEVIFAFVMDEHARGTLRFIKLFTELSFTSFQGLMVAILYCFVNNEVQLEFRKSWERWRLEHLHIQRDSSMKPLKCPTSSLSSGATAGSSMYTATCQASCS

Compound | target or system | assay | system | conditions | endpoint | result
CCN(CC)C(=O)[C@@H]1C=C2c3cccc4c3c(cn4C(=O)c3ccco3)C[C@H]2N(C)C1 | HRH2 (Homo sapiens, UniProt P25021) | ligand displacement, radioligand |  |  | Ki | 1.03 µM
CC(=O)NCCCC[C@H](NC(=O)[C@H](CCCNC(=N)N)NC(=O)[C@H](C)N)C(=O)N[C@@H](CO)C(=O)N[C@H](C(=O)NCC(=O)NCC(=O)N[C@@H](CCCCN)C(=O)N[C@@H](C)C(=O)N1CCC[C@H]1C(=O)N[C@@H](CCCNC(=N)N)C(=O)N[C@@H](CCCCN)C(=O)N[C@@H](CCC(N)=O)C(=O)O)[C@@H](C)O | YEATS domain-containing protein 4, YEATS domain (Homo sapiens, UniProt O95619) | isothermal titration calorimetry |  | pH 7.6, 25 °C, together with: histone peptide | Kd | 300 ± 14 µM
COc1cc(C2C(NC(=O)c3ccc(NC(=O)OC(C)(C)C)cc3)(C(=O)O)C(c3ccc(OC(=O)c4cccs4)c(OC)c3)C2(NC(=O)c2ccc(NC(=O)OC(C)(C)C)cc2)C(=O)O)ccc1OC(=O)c1cccs1 (stereo not drawn) | GLP1R (Homo sapiens, UniProt P43220) | binding |  |  | Ki | 1.02 µM
Nc1ncnc2c1c(-c1ccc(Oc3ccccc3)cc1)nn2C1CCCC1 | HCK Y522F | enzyme activity, inhibitor |  |  | Ki | 0.083 µM
CC(=O)NC1C(OC2C(CO)OC(OC3C(CO)OC(O)C(O)C3O)C(O)C2OC2(C(=O)O)CC(O)C(NC(C)=O)C(C(O)C(CO)OC3(C(=O)O)CC(O)C(NC(C)=O)C(C(O)C(CO)OC4(C(=O)O)CC(O)C(NC(C)=O)C(C(O)C(O)CO)O4)O3)O2)OC(CO)C(O)C1O (stereo not drawn) | hly (Listeria monocytogenes, UniProt P13128) | binding |  |  | Kd | 0.0019 µM
O=C1NC2(CC2)COc2ncc(F)cc2[C@H]2COCCN2c2ccn3ncc1c3n2 |  |  | Sprague-Dawley rat, male, brain | oral, 2.5 mg/kg/day, 4 weeks dosing, end of recovery | organ-to-body weight ratio | 0.426 ± 0.037%
CCCCCn1cc(C(=O)c2ccc3c(c2)CC(C)(C)C3)c2ccccc21 | CNR1 | cAMP, agonist |  |  | EC50 | 0.562 µM
CCC[C@@H](C(=O)c1ccccc1)N1CCCC1 | SLC6A3 (Homo sapiens, UniProt Q01959) | dopamine uptake, inhibitor | HEK293 transiently transfected | DAT S149A/S429G mutant, together with: [3H]dopamine | Ki | 0.012 µM
CC(C)(C)n1nc(-c2ccc(Cl)cc2)c2c(N)ncnc21 | SRC (Gallus gallus, UniProt P00523, G530I/P529E/Q528E) | enzyme activity, inhibitor |  |  | Ki | 0.081 µM
COc1ccccc1C(C[N+](=O)[O-])c1c(-c2ccccc2)[nH]c2ccccc12 (stereo not drawn) | CNR1 (Homo sapiens, UniProt P21554, W241A) | G protein activation, agonist, BRET |  |  | EC50 | > 1000 µM
C=CC(=O)N1CCC[C@@H](n2nc(-c3ccc(Cl)cc3)c3c(N)ncnc32)C1 | HCK Y522F |  |  |  | Ki | 0.648 µM
O=[N+]([O-])CC(c1ccco1)c1c(-c2ccccc2)[nH]c2ccccc12 (stereo not drawn) | Cannabinoid receptor 1, with Gi2 (CNR1, Homo sapiens, UniProt P21554) | Gi2 dissociation, agonist, BRET | HEK293 |  | EC50 | 0.28 ± 0.05 µM
CC(C)n1nc(-c2ccc3cc(OCc4ccccc4)ccc3c2)c2c(N)ncnc21 | HCK Y522F | enzyme activity, inhibitor |  |  | Ki | 1.1 µM
CCN(CC)C(=O)c1ccc(C(c2cccc(O)c2)N2CC(C)N(Cc3ccccc3)CC2C)cc1 (stereo not drawn) | OPRD1 (Homo sapiens, UniProt P41143, Y308F) |  |  |  | Ki | 0.00098 ± 0.00012 µM
CCCCCn1cc(C(=O)c2ccc3ccccc3c2)c2ccccc21 | CNR2 (Homo sapiens, UniProt P34972) | cAMP, agonist |  |  | EC50 | 0.0115 µM
CSCC[C@H](NC(=O)[C@@H]1CSSC[C@H](NC(=O)[C@H](CCCCN)NC(=O)[C@H](Cc2ccc(O)cc2)NC(=O)CNC(=O)[C@@H](N)CC(C(=O)O)C(=O)O)C(=O)N[C@@H](C(C)C)C(=O)N[C@H](Cc2c[nH]c3ccccc23)C(=O)N[C@@H](CCCCN)C(=O)N[C@@H]([C@@H](C)O)C(=O)N1)C(=O)N1C[C@H](O)C[C@H]1C(=O)N[C@@H](C)C(=O)O | SSTR4 (Homo sapiens, UniProt P31391) | β-arrestin recruitment, agonist |  |  | EC50 | 5.05 µM
CC(=O)N[C@H]1[C@H](O[C@H]2[C@H](O[C@H](C)C(=O)N[C@@H](C)C(=O)N[C@H](CCC(=O)N[C@@H](CCC[C@@H](N)C(=O)O)C(=O)N[C@H](C)C(=O)O)C(N)=O)[C@@H](NC(C)=O)[C@@H]3OC[C@H]2O3)O[C@H](CO)[C@@H](O)[C@@H]1O | Serine/threonine-protein kinase PknB, extracellular domain (pknB, Mycobacterium tuberculosis, UniProt P9WI81) | binding, biolayer interferometry |  | extracellular domain | Kd | 12 µM
CC(C)n1nc(-c2ccc3cc(OCc4cccc(Cl)c4)ccc3c2)c2c(N)ncnc21 | HCK Y522F | enzyme activity, inhibitor |  |  | Ki | 0.083 µM
Cc1ccc2c(C(C[N+](=O)[O-])c3cccs3)c(-c3ccccc3)[nH]c2c1 (stereo not drawn) | CNR1 | Gαi1-γ2 dissociation, agonist, BRET |  |  | EC50 | 0.13 ± 0.01 µM
CN(C)CC1CN(S(=O)(F)=Nc2cc(Cl)c(C(=O)N3CCO[C@@H](c4ccccc4)C3)c(Cl)c2)C1 (stereo partly drawn) | Hemagglutinin (Influenza A virus, UniProt A4GBW6) | binding |  |  | Kd | 0.019 µM
CC(C)CC(C(=O)N1CC2(CC1C#N)C(=O)Nc1ccccc12)N(C)C(=O)c1cc2c(F)cc(F)c(F)c2[nH]1 (stereo not drawn) | Caspase-10 (CASP10, Homo sapiens, UniProt Q92851) | enzyme activity, inhibitor |  |  | IC50 | > 100 µM
COc1ccc(CN2CCN(c3nc(C)ccc3C(=O)OC(C)C)CC2)cc1Cl | relA, residues 53-446 (Mycobacterium tuberculosis, UniProt P9WHG9) | enzyme activity, inhibitor, fluorescence polarization |  |  | IC50 | 12.6 µM
CC(=O)SCCNC(=O)CCNC(=O)[C@H](O)C(C)(C)COP(=O)(O)OP(=O)(O)OC[C@H]1O[C@@H](n2cnc3c(N)ncnc32)[C@H](O)[C@@H]1OP(=O)(O)O | icl2 (Mycobacterium tuberculosis, UniProt Q8VJU4) |  |  |  | Kd | 39 ± 3 µM
CCCCCn1cc(C(=O)c2cccc3ccccc23)c2ccccc21 | CNR1 | cAMP, agonist |  |  | EC50 | 0.0017 µM

Excerpt of the above:
Compound | target or system | assay | system | conditions | endpoint | result
CCCCCn1cc(C(=O)c2ccc3ccccc3c2)c2ccccc21 | CNR2 (Homo sapiens, UniProt P34972) | cAMP, agonist |  |  | EC50 | 0.0115 µM
CCN(CC)C(=O)[C@@H]1C=C2c3cccc4c3c(cn4C(=O)c3ccco3)C[C@H]2N(C)C1 | HRH2 (Homo sapiens, UniProt P25021) | ligand displacement, radioligand |  |  | Ki | 1.03 µM
